Measurements of several laboratories.
Each numbered part is a random draw from the data of one study; scales do not carry over between parts.
Sequence of UniProt Q99755 (whole entry, looked up): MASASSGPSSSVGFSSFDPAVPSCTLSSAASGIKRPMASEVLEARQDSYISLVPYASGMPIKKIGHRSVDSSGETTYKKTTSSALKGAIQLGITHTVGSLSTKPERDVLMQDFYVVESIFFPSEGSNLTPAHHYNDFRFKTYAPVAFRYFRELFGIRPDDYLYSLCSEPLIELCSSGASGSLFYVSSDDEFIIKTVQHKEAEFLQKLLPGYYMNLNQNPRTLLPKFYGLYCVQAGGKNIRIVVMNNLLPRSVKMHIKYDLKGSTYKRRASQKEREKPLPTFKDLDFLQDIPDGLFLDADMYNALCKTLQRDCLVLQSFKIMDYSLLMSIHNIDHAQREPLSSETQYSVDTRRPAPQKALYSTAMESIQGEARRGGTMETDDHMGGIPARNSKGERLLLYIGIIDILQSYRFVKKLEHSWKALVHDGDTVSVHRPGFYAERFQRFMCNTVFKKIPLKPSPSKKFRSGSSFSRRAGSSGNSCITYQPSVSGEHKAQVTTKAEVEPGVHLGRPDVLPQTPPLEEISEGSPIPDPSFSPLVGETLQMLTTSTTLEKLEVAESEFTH
Sequence of UniProt O70423 (whole entry, looked up): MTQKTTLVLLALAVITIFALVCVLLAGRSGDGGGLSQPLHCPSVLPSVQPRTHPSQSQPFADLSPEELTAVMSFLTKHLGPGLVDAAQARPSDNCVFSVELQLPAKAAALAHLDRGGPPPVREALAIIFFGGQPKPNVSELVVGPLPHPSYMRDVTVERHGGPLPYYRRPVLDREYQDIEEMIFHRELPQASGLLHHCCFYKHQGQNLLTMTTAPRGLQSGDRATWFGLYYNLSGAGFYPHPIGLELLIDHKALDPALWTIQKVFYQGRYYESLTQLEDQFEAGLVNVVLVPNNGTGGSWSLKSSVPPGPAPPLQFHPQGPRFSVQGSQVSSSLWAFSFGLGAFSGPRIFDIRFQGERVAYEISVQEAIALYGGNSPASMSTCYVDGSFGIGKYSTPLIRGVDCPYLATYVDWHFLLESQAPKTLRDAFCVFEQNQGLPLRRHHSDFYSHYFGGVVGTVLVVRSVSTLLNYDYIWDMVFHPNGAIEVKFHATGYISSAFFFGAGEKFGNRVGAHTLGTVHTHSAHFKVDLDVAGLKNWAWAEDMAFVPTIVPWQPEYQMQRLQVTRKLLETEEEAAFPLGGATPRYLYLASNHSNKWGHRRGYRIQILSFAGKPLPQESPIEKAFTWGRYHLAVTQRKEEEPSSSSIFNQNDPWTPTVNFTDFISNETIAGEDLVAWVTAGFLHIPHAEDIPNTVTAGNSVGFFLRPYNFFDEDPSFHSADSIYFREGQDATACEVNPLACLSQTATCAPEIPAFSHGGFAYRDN
Sequence of UniProt Q96SB4 (whole entry, looked up): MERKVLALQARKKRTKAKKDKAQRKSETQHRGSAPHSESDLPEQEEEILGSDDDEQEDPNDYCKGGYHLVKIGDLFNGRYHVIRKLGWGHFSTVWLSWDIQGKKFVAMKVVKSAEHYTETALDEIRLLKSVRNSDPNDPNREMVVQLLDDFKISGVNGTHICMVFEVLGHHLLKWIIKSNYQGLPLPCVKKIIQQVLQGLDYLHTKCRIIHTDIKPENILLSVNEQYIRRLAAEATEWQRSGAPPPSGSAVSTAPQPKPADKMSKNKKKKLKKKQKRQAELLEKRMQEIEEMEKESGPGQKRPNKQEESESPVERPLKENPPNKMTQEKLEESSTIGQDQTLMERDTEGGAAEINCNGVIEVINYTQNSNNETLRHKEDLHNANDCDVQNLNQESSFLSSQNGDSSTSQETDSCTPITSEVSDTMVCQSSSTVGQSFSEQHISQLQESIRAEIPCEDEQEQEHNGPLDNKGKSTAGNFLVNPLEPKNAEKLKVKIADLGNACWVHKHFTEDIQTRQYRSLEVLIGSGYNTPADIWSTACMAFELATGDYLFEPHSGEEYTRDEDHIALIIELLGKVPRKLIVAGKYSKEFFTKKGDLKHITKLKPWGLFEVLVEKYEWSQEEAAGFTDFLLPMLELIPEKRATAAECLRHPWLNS
Sequence of UniProt Q9UKI8 (whole entry, looked up): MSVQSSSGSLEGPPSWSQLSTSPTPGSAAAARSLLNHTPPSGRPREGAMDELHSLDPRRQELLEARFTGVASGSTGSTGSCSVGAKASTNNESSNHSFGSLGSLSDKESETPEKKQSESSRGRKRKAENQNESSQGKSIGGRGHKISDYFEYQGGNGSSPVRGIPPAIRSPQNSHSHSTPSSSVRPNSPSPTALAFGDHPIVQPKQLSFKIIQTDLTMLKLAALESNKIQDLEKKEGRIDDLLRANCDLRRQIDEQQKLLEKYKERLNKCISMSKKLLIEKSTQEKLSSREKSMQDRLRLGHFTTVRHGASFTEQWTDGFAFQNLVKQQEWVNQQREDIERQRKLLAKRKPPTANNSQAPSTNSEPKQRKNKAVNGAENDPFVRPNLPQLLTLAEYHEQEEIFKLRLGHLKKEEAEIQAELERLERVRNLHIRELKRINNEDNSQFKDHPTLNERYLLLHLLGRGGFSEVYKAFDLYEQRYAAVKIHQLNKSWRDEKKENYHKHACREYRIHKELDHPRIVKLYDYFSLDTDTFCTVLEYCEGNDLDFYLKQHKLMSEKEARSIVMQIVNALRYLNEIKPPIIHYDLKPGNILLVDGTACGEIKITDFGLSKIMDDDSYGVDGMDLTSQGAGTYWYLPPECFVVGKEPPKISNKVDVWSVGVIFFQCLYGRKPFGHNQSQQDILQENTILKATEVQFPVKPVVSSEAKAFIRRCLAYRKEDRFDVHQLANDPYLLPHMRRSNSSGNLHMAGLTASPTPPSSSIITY

Set 1 — tested at: 1 µM; endpoint: remaining binding
SMILES: CC[C@@]1(c2cccc(-c3c(F)cncc3OC)c2)C2=C(Nc3n[nH]cc31)[C@H](F)C(C)(C)CC2=O (single isomer, unassigned)
target = MAP3K7 (Homo sapiens, UniProt O43318); assay = binding, competition with immobilised ligand; value = 31%
target = TAOK2 (Homo sapiens, UniProt Q9UL54); assay = binding, competition with immobilised ligand; value = 79%
target = PHKG2 (Homo sapiens, UniProt P15735); assay = binding, competition with immobilised ligand; value = 86%
target = CAMKK2 (Homo sapiens, UniProt Q96RR4); assay = kinase binding, KINOMEscan; how to read = reference: DMSO control; value = 84%
target = CDK16 (Homo sapiens, UniProt Q00536); assay = kinase binding, KINOMEscan; how to read = reference: DMSO control; value = 5.6%
target = RET (Homo sapiens, UniProt P07949, V804L); assay = kinase binding, KINOMEscan; how to read = reference: DMSO control; value = 88%
target = STK26 (Homo sapiens, UniProt Q9P289); assay = binding, competition with immobilised ligand; value = 59%
target = LRRK2 (Homo sapiens, UniProt Q5S007); assay = kinase binding, KINOMEscan; how to read = reference: DMSO control; value = 56%
target = GAK (Homo sapiens, UniProt O14976); assay = kinase binding, KINOMEscan; how to read = reference: DMSO control; value = 95%
target = MAP4K4 (Homo sapiens, UniProt O95819); assay = kinase binding, KINOMEscan; how to read = reference: DMSO control; value = 62%
target = PAK5 (Homo sapiens, UniProt Q9P286); assay = kinase binding, KINOMEscan; how to read = reference: DMSO control; value = 96%
target = FLT3 (Homo sapiens, UniProt P36888, N841I); assay = binding, competition with immobilised ligand; value = 66%

Set 2 — effect on: thermal unfolding; method: differential scanning fluorimetry; tested at: 5.5 µM; reading: higher = more unfolded; endpoint: SYPRO Orange fluorescence
SMILES: C[C@@H]1CN(c2ccc(-c3cc(C(=O)NCCOCCOCCOCCOCCNC(=O)/C=C/c4[nH]cc(C(=O)N[C@@H](CC(N)=O)c5ccc(F)c(Cl)c5)c4-c4ccc(Cl)cc4F)ccc3F)cc2NC(=O)c2c[nH]c(=O)cc2C(F)(F)F)C[C@H](C)N1C
WDR5: WD repeat-containing protein 5 (WDR5, Homo sapiens, UniProt P61964)
DCAF1: DDB1- and CUL4-associated factor 1 (DCAF1, Homo sapiens, UniProt Q9Y4B6)
Sequence of UniProt Q9Y4B6 (whole entry, looked up): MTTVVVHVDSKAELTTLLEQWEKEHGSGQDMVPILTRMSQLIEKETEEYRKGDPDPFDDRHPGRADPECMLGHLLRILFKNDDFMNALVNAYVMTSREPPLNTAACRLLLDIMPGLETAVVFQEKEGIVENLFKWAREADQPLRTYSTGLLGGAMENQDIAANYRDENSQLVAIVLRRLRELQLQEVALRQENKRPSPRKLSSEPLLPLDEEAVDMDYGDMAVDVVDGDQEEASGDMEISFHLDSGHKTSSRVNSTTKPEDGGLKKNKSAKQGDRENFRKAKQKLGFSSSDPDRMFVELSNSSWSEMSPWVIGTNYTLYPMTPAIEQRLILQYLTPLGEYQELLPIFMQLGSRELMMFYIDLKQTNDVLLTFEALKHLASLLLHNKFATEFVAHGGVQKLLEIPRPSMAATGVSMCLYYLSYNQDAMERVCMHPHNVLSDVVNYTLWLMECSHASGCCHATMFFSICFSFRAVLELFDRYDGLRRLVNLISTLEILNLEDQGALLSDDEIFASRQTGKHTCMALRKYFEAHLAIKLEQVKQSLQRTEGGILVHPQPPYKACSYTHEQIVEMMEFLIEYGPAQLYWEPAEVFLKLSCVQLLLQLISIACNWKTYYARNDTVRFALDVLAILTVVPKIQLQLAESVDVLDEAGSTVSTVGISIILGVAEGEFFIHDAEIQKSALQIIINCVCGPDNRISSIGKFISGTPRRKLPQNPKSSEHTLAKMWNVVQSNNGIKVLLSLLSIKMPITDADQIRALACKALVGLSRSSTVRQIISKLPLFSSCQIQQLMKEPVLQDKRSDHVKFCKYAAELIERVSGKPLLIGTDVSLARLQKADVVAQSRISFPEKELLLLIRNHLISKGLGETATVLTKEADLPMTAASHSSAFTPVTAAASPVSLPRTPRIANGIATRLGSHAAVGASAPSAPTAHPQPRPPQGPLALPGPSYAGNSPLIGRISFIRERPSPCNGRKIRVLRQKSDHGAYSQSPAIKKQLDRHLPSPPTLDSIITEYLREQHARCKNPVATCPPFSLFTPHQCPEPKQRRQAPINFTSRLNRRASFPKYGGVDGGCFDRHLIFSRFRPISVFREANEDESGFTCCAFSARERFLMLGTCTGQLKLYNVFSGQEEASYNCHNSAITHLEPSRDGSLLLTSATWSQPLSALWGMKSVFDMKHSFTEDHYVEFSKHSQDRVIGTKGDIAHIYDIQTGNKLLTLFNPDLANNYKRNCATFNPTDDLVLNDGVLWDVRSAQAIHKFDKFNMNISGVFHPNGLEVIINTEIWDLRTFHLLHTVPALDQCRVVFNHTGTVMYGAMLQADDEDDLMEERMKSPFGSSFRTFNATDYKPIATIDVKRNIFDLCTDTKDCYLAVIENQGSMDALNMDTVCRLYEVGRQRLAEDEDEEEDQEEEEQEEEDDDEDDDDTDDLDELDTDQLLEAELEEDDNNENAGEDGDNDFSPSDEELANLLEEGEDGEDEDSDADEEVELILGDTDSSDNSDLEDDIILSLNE
target = WDR5; conditions = 74.61 °C; value = 24900 a.u.
target = WDR5; conditions = 60.01 °C; value = 15600 a.u.
target = WDR5; conditions = 67.01 °C; value = 14000 a.u.
target = DCAF1; conditions = 72.21 °C; value = 53100 a.u.
target = DCAF1; conditions = 58.21 °C; value = 32200 a.u.
target = WDR5; conditions = 26.2 °C; value = 13000 a.u.
target = WDR5; conditions = 49.4 °C; value = 16200 a.u.
target = DCAF1; conditions = 30.2 °C; value = 9520 a.u.

Set 3 — Structure (SMILES): O=C(Nc1ccccc1)Nc1cccc(Oc2ccc3nccn3n2)c1; endpoint: remaining binding
target = EGFR (Homo sapiens, UniProt P00533, L858R/T790M); assay = binding; conditions = 1 µM; value = 100%
target = PIK3CD (Homo sapiens, UniProt O00329); assay = binding; conditions = 1 µM; value = 86%
target = PDGFRA (Homo sapiens, UniProt P16234); assay = DiscoverX cell-free binding; conditions = 1000 nM; value = 1.1%
target = PRKACB (Homo sapiens, UniProt P22694); assay = cell-free binding; conditions = 1 µM; value = 30%
target = MAPK6 (Homo sapiens, UniProt Q16659); assay = binding; conditions = 1 µM; value = 100%
target = MAPK14 (Homo sapiens, UniProt Q16539); assay = binding, competition with immobilised ligand; conditions = 1 µM; value = 100%
target = SRPK1 (Homo sapiens, UniProt Q96SB4); assay = binding; conditions = 1 µM; value = 100%
target = DAPK2 (Homo sapiens, UniProt Q9UIK4); assay = binding; conditions = 1 µM; value = 100%
target = COQ8B (Homo sapiens, UniProt Q96D53); assay = binding; conditions = 1 µM; value = 82%
target = MET (Homo sapiens, UniProt P08581, M1250T); assay = binding; conditions = 1 µM; value = 100%
target = PIP5K1A (Homo sapiens, UniProt Q99755); assay = binding; conditions = 1 µM; value = 91%
target = TLK1 (Homo sapiens, UniProt Q9UKI8); assay = binding; conditions = 1 µM; value = 83%
target = EGFR (Homo sapiens, UniProt P00533, G719S); assay = binding; conditions = 1 µM; value = 31%
target = STK11 (Homo sapiens, UniProt Q15831); assay = cell-free binding; conditions = 1 µM; value = 76%
target = TEK (Homo sapiens, UniProt Q02763); assay = binding, competition with immobilised ligand; conditions = 1 µM; value = 7.6%
target = IGF1R (Homo sapiens, UniProt P08069); assay = binding; conditions = 1 µM; value = 100%
target = SRMS (Homo sapiens, UniProt Q9H3Y6); assay = cell-free binding; conditions = 1 µM; value = 100%

Other studies, line by line
MPO: Myeloperoxidase (MPO, Homo sapiens, UniProt P05164)
Sequence of UniProt P05164 (whole entry, looked up): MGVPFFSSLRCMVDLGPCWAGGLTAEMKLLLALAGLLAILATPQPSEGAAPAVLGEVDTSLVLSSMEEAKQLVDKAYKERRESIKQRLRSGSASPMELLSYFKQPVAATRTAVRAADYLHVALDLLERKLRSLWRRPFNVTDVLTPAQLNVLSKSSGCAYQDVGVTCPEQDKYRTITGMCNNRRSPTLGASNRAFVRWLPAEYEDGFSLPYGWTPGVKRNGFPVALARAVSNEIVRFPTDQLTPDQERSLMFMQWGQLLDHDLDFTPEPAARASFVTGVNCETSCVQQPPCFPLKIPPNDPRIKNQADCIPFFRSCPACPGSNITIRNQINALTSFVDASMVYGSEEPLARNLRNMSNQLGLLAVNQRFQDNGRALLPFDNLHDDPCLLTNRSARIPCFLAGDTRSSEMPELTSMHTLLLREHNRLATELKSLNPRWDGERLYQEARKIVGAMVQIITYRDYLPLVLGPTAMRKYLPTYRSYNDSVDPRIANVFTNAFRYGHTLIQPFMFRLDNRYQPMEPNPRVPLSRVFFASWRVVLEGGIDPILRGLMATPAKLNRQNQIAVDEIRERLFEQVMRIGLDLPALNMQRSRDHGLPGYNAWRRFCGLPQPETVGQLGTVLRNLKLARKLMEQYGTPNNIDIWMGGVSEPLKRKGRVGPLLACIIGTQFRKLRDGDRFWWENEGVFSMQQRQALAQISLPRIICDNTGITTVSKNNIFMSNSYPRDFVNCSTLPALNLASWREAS
SMILES = CS(=O)(=O)c1ccc(OC/C(=C/F)CN)cc1.Cl; target or system = Amine oxidase [copper-containing] 3 (Mus musculus, UniProt O70423); assay = enzyme activity; system = mouse adipose tissue; conditions = concentration not given; endpoint = activity response; value = 91%
SMILES = NC/C(=C\F)COc1cccc(Cn2c(=S)[nH]c(=O)c3[nH]cnc32)c1; system = human whole blood; conditions = 1 h; endpoint = blood to plasma ratio; value = 0.98
SMILES = COc1ccc(Cl)cc1-c1cc(=O)[nH]c(=S)n1CC(N)=O; target or system = MPO; assay = enzyme activity, inhibitor; conditions = 0.136 µM; endpoint = remaining activity; value = 85.1%
SMILES = NC/C(=C\F)COc1cccc(Cn2c(=O)[nH]c(=O)c3[nH]cnc32)c1; target or system = MPO; assay = H2O2 consumption, inhibitor, Amplex Red; conditions = 5.081e-05 µM; endpoint = inhibition; value = -3.69%

A few entries again (set 3):
target = STK11 (Homo sapiens, UniProt Q15831); assay = cell-free binding; conditions = 1 µM; value = 76%
target = PRKACB (Homo sapiens, UniProt P22694); assay = cell-free binding; conditions = 1 µM; value = 30%
target = SRMS (Homo sapiens, UniProt Q9H3Y6); assay = cell-free binding; conditions = 1 µM; value = 100%
target = TEK (Homo sapiens, UniProt Q02763); assay = binding, competition with immobilised ligand; conditions = 1 µM; value = 7.6%
